Experimental data collected from several papers.
Each line is one published result; not all experiments were run side by side. “And” joins repeats or separate records; there may be more than shown. ± gives the spread as reported.

Molecule	assay	system	setting	endpoint	result
CC(C)C[C@H](NC(=O)[C@@H](CCCCNC(=O)[C@@H](Cc1ccccc1)NC(=O)CCCCCNC(=O)CN1CCN(CC(=O)O)CCN(CC(=O)O)CCN(CC(=O)O)CC1)NC(=O)[C@H](Cc1ccc(O)cc1)NC(=O)[C@H](CO)NC(=O)[C@H](Cc1c[nH]c2ccccc12)NC(=O)[C@H](Cc1c[nH]cn1)NC(=O)[C@@H]1CCC(=O)N1)C(=O)N[C@@H](CCCNC(=N)N)C(=O)N1CCC[C@H]1C(=O)NCC(N)=O [indium-111 labelled]		female athymic nude mice, bone	intravenous, 0.037 MBq, 4 h	tissue uptake	0.07 ± 0.05 %ID/g
N=C(N)NCCC[C@@H]1NC(=O)[C@H](CCCCNC(=S)Nc2ccc(CC3CN(CC(=O)O)CCN(CC(=O)O)CCN(CC(=O)O)CCN3CC(=O)O)cc2)NC(=O)[C@@H](Cc2ccc(O)cc2)NC(=O)[C@H](CC(=O)O)NC(=O)CNC1=O (stereo partly drawn) [actinium-225 labelled]		mice with U-87 MG tumour, kidney	dose not given	initial activity A0	0.0025 µCi
CC(C)C[C@H](NC(=O)[C@H](Cc1ccc(O)cc1)NC(=O)[C@@H](CCCNC(=N)N)NC(=O)[C@@H](CO)NC(=O)[C@H](Cc1ccccc1)NC(=O)[C@H](CC1CCCCC1)NC(=O)[C@H](CC(=O)O)NC(=O)CN1CCN(CC(=O)O)CCN(CC(=O)O)CCN(CC(=O)O)CC1)C(=O)N[C@@H](Cc1c[nH]c2ccccc12)C(=O)N[C@@H](CO)C(=O)O [copper-64 labelled]		human, small intestine	concentration not given, 3 h	activity concentration	4280 Bq/mL and 1290 Bq/mL and 2430 Bq/mL and 2380 Bq/mL and 3410 Bq/mL and 2450 Bq/mL
C[C@@H](O)[C@@H]1NC(=O)[C@H](CCCCN)NC(=O)[C@@H](Cc2c[nH]c3ccccc23)NC(=O)[C@H](Cc2ccc(O)cc2)NC(=O)[C@@H](NC(=O)[C@@H](Cc2ccccc2)NC(=O)CN2CCN(CC(=O)O)CCN(C(=O)CCNC(=O)c3ncn4c(=O)n(C)nnc34)CCN(CC(=O)O)CC2)CSSC[C@@H](C(=O)N[C@H](CO)[C@@H](C)O)NC1=O [gallium-68 labelled]	ex vivo gamma counting	mouse, NCI-H69 xenograft, NCI-H69 tumour	intravenous, 2 nmol, 1 h	tumour uptake	3.68 ± 0.88 %ID/g
CC(C)C[C@@H](NC(=O)[C@@H](CC(C)C)NC(=O)[C@@H](CC(=O)O)NC(=O)[C@@H](CC(C)C)NC(=O)[C@@H](CC(C)C)NC(=O)[C@@H](CC(C)C)NC(=O)[C@H](NC(=O)[C@@H](CC(=O)O)NC(=O)[C@H](NC(=O)[C@H]1CCCN1C(=O)[C@@H](Cc1ccccc1)NC(=O)[C@@H](CC(C)C)NC(=O)[C@@H](CC(C)C)NC(=O)[C@@H](CC(=O)O)NC(=O)[C@@H](CC(C)C)NC(=O)[C@@H](Cc1ccc(O)cc1)NC(=O)[C@@H](C)NC(=O)[C@@H](CCCNC(=N)N)NC(=O)[C@@H](Cc1c[nH]c2ccccc12)NC(=O)[C@H]1CCCN1C(=O)[C@@H](CC(N)=O)NC(=O)[C@@H](CCC(N)=O)NC(=O)[C@@H](CC(=O)O)NC(=O)[C@@H](CC(=O)O)NC(=O)[C@@H](CSC1CC(=O)N(CCNC(=O)CN2CCN(CC(=O)O)CCN(CC(=O)O)CC2)C1=O)NC(=O)[C@@H](C)N)[C@H](C)O)[C@H](C)O)C(=O)N[C@H](Cc1c[nH]c2ccccc12)C(=O)O (stereo partly drawn) [fluorine-18 labelled]		male nude mouse, U-87 MG xenograft, tumour	intravenous, 6 h	tumour uptake	3.97 %ID/g
CCCC[C@H](NC(=O)COCCOCCNC(=O)CN1CCN(CC(=O)O)CCN(CC(=O)O)CC1)C(=O)N[C@H]1CC(=O)NCCCC[C@@H](C(N)=O)NC(=O)[C@H](Cc2c[nH]c3ccccc23)NC(=O)[C@H](CCCNC(=N)N)NC(=O)[C@@H](Cc2ccccc2)NC(=O)[C@H](Cc2c[nH]cn2)NC1=O [technetium-99m labelled]		C57 mouse, skin	intravenous, 0.037 MBq, 0.5 h	tissue uptake	3.73 ± 1.16 %ID/g
nucleophosmin T78E	far-UV CD, CDSSTR	Tris buffer, NaCl	pH 7.5, room temperature	alpha-helix content	17%
CCCC[C@H](NC(=O)CCCCCCCNC(=O)CN1CCN(CC(=O)O)CCN(CC(=O)O)CC1)C(=O)N[C@H]1CC(=O)NCCCC[C@@H](C(N)=O)NC(=O)[C@H](Cc2c[nH]c3ccccc23)NC(=O)[C@H](CCCNC(=N)N)NC(=O)[C@@H](Cc2ccccc2)NC(=O)[C@H](Cc2c[nH]cn2)NC1=O [technetium-99m labelled]		C57 mouse, kidneys	intravenous, 0.037 MBq, 2 h	tissue uptake	1.32 ± 0.92 %ID/g
C=C1CC[C@H](OCCCNC(=O)CCOCCOCCOCCOCCOCCOCCOCCOCCOCCOCCOCCOCCOCCOCCOCCOCCOCCOCCOCCOCCOCCOCCOCCOCCOCCOCCOCCOCCOCCOCCOCCOCCOCCOCCOCCOCCNC(=O)CCN2C(=O)CC(SC[C@H](NC(=O)[C@H](Cc3ccccc3)NC(=O)[C@H](CC(N)=O)NC(=O)[C@H](Cc3c[nH]cn3)NC(=O)[C@@H](NC(=O)[C@H](CC(=O)O)NC(=O)[C@H](CCC(N)=O)NC(=O)[C@H](CC(C)C)NC(=O)[C@H](CCCCN)NC(=O)[C@H](CCCCN)NC(=O)[C@H](CCCNC(=N)N)NC(=O)[C@H](CC(C)C)NC(=O)[C@H](Cc3c[nH]c4ccccc34)NC(=O)[C@H](CCC(=O)O)NC(=O)[C@@H](NC(=O)[C@H](CCCNC(=N)N)NC(=O)[C@H](CCC(=O)O)NC(=O)[C@H](CCSC)NC(=O)[C@H](CO)NC(=O)[C@H](CC(N)=O)NC(=O)[C@H](CC(C)C)NC(=O)[C@H](Cc3c[nH]cn3)NC(=O)[C@H](CCCCN)NC(=O)CNC(=O)[C@H](CC(C)C)NC(=O)[C@H](CC(N)=O)NC(=O)[C@H](Cc3c[nH]cn3)NC(=O)[C@H](CCSC)NC(=O)[C@H](CC(C)C)NC(=O)[C@H](CCC(N)=O)NC(=O)[C@@H](NC(=O)[C@H](CCC(=O)O)NC(=O)[C@H](CO)NC(=O)[C@@H](NC(=O)[C@@H](N)CO)C(C)C)[C@@H](C)CC)C(C)C)C(C)C)C(=O)O)C2=O)C/C1=C/C=C1\CCC[C@]2(C)[C@@H]([C@H](C)CCCC(C)(C)O)CC[C@@H]12 (stereo partly drawn)		cynomolgus monkey male	sc, 0.07 mg/kg single	clearance	0.121 mL/min/kg
